Published values pooled from the literature.
Parts stem from different laboratories: compare values within a part only.

Set 1
Target: RNA binding protein fox-1 homolog 2, RRM domain, GST-SBP tag (RBFOX2, Homo sapiens, UniProt O43251-10, residues 100-194)
Technique: RNA Bind-n-Seq
Form: RNA
Matrix: in vitro
Tested at: 365 nM
Setting: natural RNA segment, single round, ends assumed
Relative to: no-protein control
Direction: higher = stronger binding
All sequences stand within: GGGAGUUCUACAGUCCGACGAUC … UGGAAUUCUCGGGUGCCAA
| Sequence | RBNS enrichment (R) |
| --- | --- |
| CGGGCUCCACGCUUUUGCUGUCCUUGACACCUCUCGUUGGGGCUUCUGCAGGCAUCUCUGUCUGAGAGCAGUGGGGGCUGCCCUCUGUAGAGCUGUGAGAGCAGUGGGGG | 0.486 |
| AAAGGUAGACAUUUUGGGAAUCAUAACUGUAUUACUAAACGUGUUUAAUCAAAAUUCAUAGUUGGAUCAGCCAUUGCCUUGUACAGGUUUAUUUUUUCCCCACAGACGCA | 1.94 |
| CACACAGGGCUCUUUGAUGGACCCACGAACGCUCUUAGCUUUCUCAGGGGGUCAGCAGAGUUAUUGAAUCUUAAUUUUUUUUAAUGUACAAGUUUUGUAUAAAUAAUAAA | 0.545 |
| UUGUUUUUACUAGGUAGACUGGCAUCUGGGUAGAGGCUGCCUGGGAUUUUUAUCCCCACAUAACCAGGGGCCAUCUGAAAGUCAUUUUCUAGCCAGAUCAGCCACUGAGC | 0.429 |
| CAGUAGACACCCAGAAAUCGUGACUUCUGUGUUCUCUCCAUUUGAGUAUUUUGUAAUUUUUUUGAAAUAUUUGUGGACAUAAAUAAAACCAAGCUACACUACAACCCUUG | 0.656 |
| AGUCCUAUAUCUUCAUUCAGCAACCCAAAUAUUACAUACAUUUCCAGAAUUUUCUUGAUUGUUACUUUCAGUGAUAUUCUUUAUAUUGGGUACAGGAGAAGUUUGGUGUU | 0.456 |
| GAACUCAAGAAAAGAUACGGUGGUUGAUUUCCAUUUUUGCUGAAAUAAUUGUUUUUGACUUUCAUAUGUAAAUUUUUUCUACUGAAAGUGUUUUGCUUUUUAAGAAAAUG | 0.545 |
| AAGUGCUUCUAAGUAUUUCCUUAAGGUCUGUGAAGAGUAUUUGCCCUGCGUCUUCAUUUCCGUGUGUGUGCAACUGCUCCGCUCCAAGAACUGCACCGCUGUCUUGUGAG | 0.407 |
| UAUACCUAAUGCUAGAUGACGAGUUAGUGGGUGCAGCGCACCAGCAUGGCACAUGUAUACCUAUGUAACUAACCUGCACAAUGUGCACAUGUACCCUAAAACUUAAAGUA | 1.15 |

Set 2
Target: Interferon regulatory factor 5, full length, phosphomimetic (IRF5, Homo sapiens, UniProt Q13568-2, residues 1-514, S451D/S453D/S456D/S462D)
Technique: protein-binding microarray
Form: double-stranded DNA, one strand shown
Matrix: in vitro
Tested at: 940 nM top
Setting: 60-bp whole probe
Together with: salmon DNA 0.4 mg/ml
Relative to: random background probes
Direction: higher = stronger binding
All sequences stand within: GCCTAGCAC … GTCTTGATTCGCTTGACGCTGCTG
| Sequence | fitted relative affinity |
| --- | --- |
| TTAGATCTCGGTATCGATTAGTGCTAG | 5.29 z-score |
| TTAGGACTGAGACTGGATTAGTGCTAG | -0.334 z-score |
| GACGGACTGGGGAATGGGGACGTGCTA | -0.116 z-score |
| TTAGGTTTGCTTCTCCTTTAGTGCTAG | 0.159 z-score |
| TTAGGTATCGACTATAGGTTAGTGCTA | 5.29 z-score |
| GACGGTTTCGCTTCCGGGACGTGCTAG | 7.78 z-score |
| GACGGTCTCGGTATCGTGACGTGCTAG | 3.88 z-score |
| TTAGGACTGCGACTGCTTTAGTGCTAG | -0.687 z-score |
| TCAATTTTCGGGTAGATGACTGTGCTA | 1.67 z-score |
| GACGGACTGGGGCCTGGGGACGTGCTA | -0.595 z-score |
| TCAGTTTTCTTTTCCATTTTGTGCTAG | 2.29 z-score |
| CACGGTATCCTTTTCCTGACGTGCTAG | 0.508 z-score |
| TTAGATTTCGCGTATCGATTAGTGCTA | 1.44 z-score |
| GACGAACTGGGGTATCGAAACGTGCTA | 1.49 z-score |
| GGCGATTTCAGTCTCGAGACGTGCTAG | 2.08 z-score |
| CCAGGTTGGGAGGGGTAGGGGTGCTAG | 1.11 z-score |
| GACGGTTTCGGAACTGGGGACGTGCTA | 6.92 z-score |
| GACGGTTTCGACACTGGGTACGTGCTA | 6.88 z-score |
| AAACTAGTGTTTTTCTCCTAGTGCTAG | 0.31 z-score |
| GACGATATCGGGACTGCAGACGTGCTA | -0.16 z-score |
| TCTCTTTTTGCTTTCTTTTAGTGCTAG | 4.6 z-score |
| TTAGGACTGGGGACTGGGGTAGTGCTA | -0.0513 z-score |

Set 3
Target: RING finger protein unkempt homolog, zinc fingers 1-6, SBP tag (UNK, Homo sapiens, UniProt Q9C0B0, residues 30-357)
Chain of UniProt Q9C0B0 (30-357, looked up): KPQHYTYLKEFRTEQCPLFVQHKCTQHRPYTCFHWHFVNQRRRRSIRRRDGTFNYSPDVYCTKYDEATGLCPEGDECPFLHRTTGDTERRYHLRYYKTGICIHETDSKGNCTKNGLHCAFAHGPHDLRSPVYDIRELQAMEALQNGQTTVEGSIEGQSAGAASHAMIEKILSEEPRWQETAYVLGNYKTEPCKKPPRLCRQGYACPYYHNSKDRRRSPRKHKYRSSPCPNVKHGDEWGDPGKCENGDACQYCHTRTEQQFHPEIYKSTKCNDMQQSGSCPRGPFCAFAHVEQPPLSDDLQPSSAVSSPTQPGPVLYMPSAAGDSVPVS
Technique: RNA Bind-n-Seq
Form: RNA
Matrix: in vitro
Tested at: 100 nM
Setting: RNA with constant flanks, vertebrate orthologous sites, ends assumed
Relative to: input RNA pool
Direction: higher = stronger binding
All sequences stand within: GGGAGUUCUACAGUCCGACGAUC … CAACAGAGGAUUGAGCAUCA
| Sequence | bound/input enrichment |
| --- | --- |
| AUCCCUCAGUGACAGUGUGCCAUCUGUAGCAGAUUCCCACUCUAGUCAUUUUUCUGAAUUUAGUUGUUCUGACCUAGAAAGCAUGAAAACUUCCUGCAGUCAUGGUUCCAGUGAUUAUCA | 2.97 ratio |
| GAUGUAUUUAUACUGGCCAAACAUUUUUGACUUGUAUUUCUUUGUCCUUUUUUGGUAGUUCUCGUUGUUACUCGCACCAUUUUUAUGUCUCCUUCACUGAAGGGCUAGAGUUUUAACUUU | 0.394 ratio |
| GUCUAGAGAGGGGUGAAACGAACAUAUCCGAAUAAAGAAAUGCAAUGCUGAAAGUCCUAUCAGUACUAAGGUCAGCUGGAGAAUUUAAAGAAGCCUCUCGUAGUAAUUCUAAAAUGAAAA | 0.665 ratio |
| AGUUUGUAUGUACAUUAUUCACAUUCCUCUCUGAUGUGUUUGGGGGAAAAAAAGACAUUUUAGCCUUUUUUAAGGUUAUUGACUUAAUUUCAUGUUAUUUGGUUGCAUGAAGUUGCCCUU | 0.362 ratio |
| CAUGUCCUUUUUACUGUGGUAUUCAGAACAACCACAGUACUCACUUUUUCCAAAUGAUUCUAGUAAUUGCCUAGAAAUAUCUUUUUCUUACCUGUUAUUUAUCAAUUUUUCCCAGUAUUU | 1.4 ratio |
| GUUAGGCCAUGACCCUUAUAGGCUAGGUCAUGAUGCCUACAGGUUAGGGCAAGACCCCUAUAGAUUAGGGCAUGACCCCUACAGACUAACUCCUGAUCCCUAUAGGAUGUCACCUAGACC | 0.357 ratio |
| CACCUCCUGAUCUUCUAGCUUUCAAGUUGUGGCUGUUUUCGAUACUGGUUUUCUUUCCUUUAGAAUUUCCCCCCCGUUGUUGUCCACCUUCUCUAUCCCUGUUGCCAAGGUUGACUCAUG | 0.955 ratio |
| GCUCUCCUCUGAACCCCAUCUCUUCUGUCUCAUAGUGCAGAAAUGCUCUUAACUAUGUUUUAGUGGACUUGUUUUAAGUUUAGAGAAAUUUCCAGUACAGAUACUGUGAGCUGACAUGGA | 0.459 ratio |
| GAACUAAAGGAGUUAGCAUCUUUAUUUUUGUAUCAAAGAUAAAGAUUAUUUUGAAAUUAUUAAGAUUUUUACACAACUCUGAAAAUCUGUUGCUUUUGUAAACAAGUUGUUUAAUCUUAG | 0.613 ratio |
| GUGAGGGUCUACUGACCACUCACUGUUAUGUCUGGUAUCUGUAAACACUCUUUUUGUUCUUAGUCUUUUUCUUGUAUAAUUGAUGUUCUUUAAAAUUGUUAACGUAUAACAGGGCUUAUG | 2.12 ratio |
| CCGAAAGGCCAGAUCCCCUCUCCCCUUCUACUGCUUCUACCAACUGGAAGCACAGAAAACUAGAAUUUCAUUUAUUUUGUUUUUAAAAAUACAUGUUGAUUUCUUGUAACAUCCAAUAGG | 0.377 ratio |

Set 4
Target: Histone acetyltransferase KAT6A, winged helix 2, GST fusion (KAT6A, Homo sapiens, UniProt Q92794, residues 85-181)
Technique: protein binding microarray
Form: double-stranded DNA, one strand shown
Matrix: in vitro
Tested at: not given
Setting: 8-mer, flanks averaged, mean of 2 arrays, mostly near background
Relative to: not given
Direction: higher = stronger binding
Residues (chain): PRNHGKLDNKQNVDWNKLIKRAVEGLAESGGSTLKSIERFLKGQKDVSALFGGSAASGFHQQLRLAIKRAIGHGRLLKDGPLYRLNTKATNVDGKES
| Sequence | E-score |
| --- | --- |
| ACTACTAG | -0.0719 |
| GAGTTACC | -0.0471 |
| ATGCTAAA | 0.192 |
| TACAACCA | 0.0181 |
| GCAGGGCA | 0.126 |
| AGGATCCG | -0.0804 |
| CCTCATTC | 0.00872 |
| GCAAGCCA | 0.00949 |
| GGTATCTA | -0.0406 |
| ACACCGGC | 0.236 |
| ACGAAACG | -0.0718 |
| AAGGAGTG | -0.168 |
| ATTCGTAC | 0.105 |
| GTCAAGAA | 0.119 |
| GTAGAAGA | -0.145 |
| ACTTCACC | -0.0141 |
| CCATATGC | -0.0642 |
| ACTCCGTC | 0.104 |
| GCCAATAC | -0.116 |
| CCGCTTCG | -0.0141 |
| CGAAACCA | 0.12 |
| AAATGGCT | -0.222 |
| AACAGAAG | -0.0106 |
| AGCGTTCG | -0.0876 |
| CGCTGCGA | 0.136 |

Repeated from above (set 2):
| Sequence | fitted relative affinity |
| --- | --- |
| GACGGTTTCGCTTCCGGGACGTGCTAG | 7.78 z-score |
| GACGGTCTCGGTATCGTGACGTGCTAG | 3.88 z-score |
| TTAGGACTGCGACTGCTTTAGTGCTAG | -0.687 z-score |
| TCAATTTTCGGGTAGATGACTGTGCTA | 1.67 z-score |
| GACGGACTGGGGCCTGGGGACGTGCTA | -0.595 z-score |
| TCAGTTTTCTTTTCCATTTTGTGCTAG | 2.29 z-score |
| CACGGTATCCTTTTCCTGACGTGCTAG | 0.508 z-score |
| TTAGATTTCGCGTATCGATTAGTGCTA | 1.44 z-score |
| GACGAACTGGGGTATCGAAACGTGCTA | 1.49 z-score |
| GGCGATTTCAGTCTCGAGACGTGCTAG | 2.08 z-score |
| CCAGGTTGGGAGGGGTAGGGGTGCTAG | 1.11 z-score |
